Measured values pooled from the literature.
Parts stem from different laboratories: compare values within a part only. Values joined by “and” are separate records of one study, mostly repeats; a detail may differ. ± marks the error that the study gave.
Sequence of UniProt Q9UQB9 (whole entry, looked up): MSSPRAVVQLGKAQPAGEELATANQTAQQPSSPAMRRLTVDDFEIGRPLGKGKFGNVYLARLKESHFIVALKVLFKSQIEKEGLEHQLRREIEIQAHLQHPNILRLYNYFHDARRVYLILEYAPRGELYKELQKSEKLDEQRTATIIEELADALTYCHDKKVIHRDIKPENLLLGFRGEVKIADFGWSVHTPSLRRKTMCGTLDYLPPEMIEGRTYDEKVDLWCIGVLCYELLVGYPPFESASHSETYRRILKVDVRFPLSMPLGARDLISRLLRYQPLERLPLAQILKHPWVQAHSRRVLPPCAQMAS

Study 1
SMILES: CC[C@@]1(c2ccccc2)C2=C(CC(C)(C)CC2=O)Nc2n[nH]cc21
Concentration: 1 µM
target	observed	technique	reference	remaining binding [%]
DCLK3 (Homo sapiens, UniProt Q9C098)	binding	competition with immobilised ligand	–	100
STK32B (Homo sapiens, UniProt Q9NY57)	binding	competition with immobilised ligand	–	83
Ribosomal protein S6 kinase alpha-5, N-terminal kinase domain (RPS6KA5, Homo sapiens, UniProt O75582)	binding	competition with immobilised ligand	–	100
FLT4 (Homo sapiens, UniProt P35916)	binding	competition with immobilised ligand	–	100
PRKAA1 (Homo sapiens, UniProt Q13131)	kinase binding	KINOMEscan	DMSO control	100
TNIK (Homo sapiens, UniProt Q9UKE5)	kinase binding	KINOMEscan	DMSO control	95
NEK5 (Homo sapiens, UniProt Q6P3R8)	kinase binding	KINOMEscan	DMSO control	94
MAPK10 (Homo sapiens, UniProt P53779)	binding	competition with immobilised ligand	–	100
MAP3K11 (Homo sapiens, UniProt Q16584)	kinase binding	KINOMEscan	DMSO control	100
PRKACA (Homo sapiens, UniProt P17612)	binding	competition with immobilised ligand	–	100
CDKL2 (Homo sapiens, UniProt Q92772)	binding	competition with immobilised ligand	–	100
EPHB1 (Homo sapiens, UniProt P54762)	binding	competition with immobilised ligand	–	100
SGK1 (Homo sapiens, UniProt O00141)	kinase binding	KINOMEscan	DMSO control	95
RPS6KB1 (Homo sapiens, UniProt P23443)	kinase binding	KINOMEscan	DMSO control	80
MAP3K10 (Homo sapiens, UniProt Q02779)	binding	competition with immobilised ligand	–	81
CDC42BPB (Homo sapiens, UniProt Q9Y5S2)	kinase binding	KINOMEscan	DMSO control	100
MAPK13 (Homo sapiens, UniProt O15264)	binding	competition with immobilised ligand	–	100
MATK (Homo sapiens, UniProt P42679)	kinase binding	KINOMEscan	DMSO control	100
STK24 (Homo sapiens, UniProt Q9Y6E0)	binding	competition with immobilised ligand	–	91
PIM2 (Homo sapiens, UniProt Q9P1W9)	binding	competition with immobilised ligand	–	100
EPHB6 (Homo sapiens, UniProt O15197)	binding	competition with immobilised ligand	–	100
FLT3 (Homo sapiens, UniProt P36888, D835H)	binding	competition with immobilised ligand	–	100
PRKCI (Homo sapiens, UniProt P41743)	kinase binding	KINOMEscan	DMSO control	100
Tyrosine-protein kinase ABL1, non-phosphorylated (ABL1, Homo sapiens, UniProt P00519, F317I)	binding	competition with immobilised ligand	–	98
PAK1 (Homo sapiens, UniProt Q13153)	binding	competition with immobilised ligand	–	100

Study 2
Structure (SMILES): NC/C(=C\F)COc1cccc(Cn2c(=S)[nH]c(=O)c3[nH]ccc32)c1
Observed: enzyme activity
Action: inhibitor
Technique: fluorescence
MPO: Myeloperoxidase (MPO, Homo sapiens, UniProt P05164)
Sequence of UniProt P05164 (whole entry, looked up): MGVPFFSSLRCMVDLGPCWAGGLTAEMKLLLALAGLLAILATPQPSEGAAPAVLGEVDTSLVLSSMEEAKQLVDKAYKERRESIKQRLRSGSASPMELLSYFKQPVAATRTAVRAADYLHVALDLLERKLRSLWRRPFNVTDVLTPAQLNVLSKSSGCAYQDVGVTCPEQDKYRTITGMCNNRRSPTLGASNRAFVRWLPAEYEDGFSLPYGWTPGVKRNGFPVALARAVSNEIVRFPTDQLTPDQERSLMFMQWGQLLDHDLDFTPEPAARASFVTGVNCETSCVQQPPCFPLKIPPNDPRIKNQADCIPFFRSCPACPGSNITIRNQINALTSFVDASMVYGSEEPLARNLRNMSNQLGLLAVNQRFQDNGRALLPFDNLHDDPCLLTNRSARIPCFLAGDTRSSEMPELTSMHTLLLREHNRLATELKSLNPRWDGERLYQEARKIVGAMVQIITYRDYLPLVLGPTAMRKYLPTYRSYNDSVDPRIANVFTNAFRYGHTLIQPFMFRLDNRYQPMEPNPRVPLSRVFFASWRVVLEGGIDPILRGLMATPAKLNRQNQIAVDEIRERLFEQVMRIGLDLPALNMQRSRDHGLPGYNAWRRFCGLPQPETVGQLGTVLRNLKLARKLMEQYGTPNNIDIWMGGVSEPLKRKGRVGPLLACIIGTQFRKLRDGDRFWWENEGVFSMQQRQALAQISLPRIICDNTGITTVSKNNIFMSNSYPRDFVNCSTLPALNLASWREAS
AOC3: Amine oxidase [copper-containing] 3 (AOC3, Homo sapiens, UniProt Q16853)
Sequence of UniProt Q16853 (whole entry, looked up): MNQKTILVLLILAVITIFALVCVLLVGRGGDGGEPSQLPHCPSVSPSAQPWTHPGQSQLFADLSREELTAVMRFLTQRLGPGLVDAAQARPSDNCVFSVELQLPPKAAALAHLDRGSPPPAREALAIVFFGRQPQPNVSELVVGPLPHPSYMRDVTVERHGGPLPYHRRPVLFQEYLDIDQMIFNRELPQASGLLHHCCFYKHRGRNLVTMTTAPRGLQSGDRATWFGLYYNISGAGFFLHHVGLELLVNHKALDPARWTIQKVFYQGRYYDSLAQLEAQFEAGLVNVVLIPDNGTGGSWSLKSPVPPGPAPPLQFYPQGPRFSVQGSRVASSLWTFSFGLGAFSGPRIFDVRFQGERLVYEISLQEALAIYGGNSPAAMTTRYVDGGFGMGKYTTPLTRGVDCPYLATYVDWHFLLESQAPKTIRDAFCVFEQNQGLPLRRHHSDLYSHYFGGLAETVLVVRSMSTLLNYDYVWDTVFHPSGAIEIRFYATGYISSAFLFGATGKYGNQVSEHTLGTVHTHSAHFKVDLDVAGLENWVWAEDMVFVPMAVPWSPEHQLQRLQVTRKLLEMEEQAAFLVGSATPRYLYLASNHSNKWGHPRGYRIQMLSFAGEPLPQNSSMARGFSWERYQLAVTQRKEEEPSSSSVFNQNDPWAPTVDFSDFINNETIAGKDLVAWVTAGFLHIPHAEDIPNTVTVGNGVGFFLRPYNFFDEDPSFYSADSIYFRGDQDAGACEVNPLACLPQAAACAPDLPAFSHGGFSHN
target	concentration	inhibition
MPO	6.9 nM	26% and 44.2% and 24.6%
MPO	0.3704 µM	98.2% and 98.6% and 96.7%
MPO	1.667 µM	99.6% and 98.9% and 98.6%
AOC3	3.333 µM	100% and 99.5% and 99.4% and 99.9% and 97.3%
MPO	1.111 µM	98.8% and 99.2% and 99.1%
AOC3	1.111 µM	99.6% and 99.3% and 99.8% and 99.4% and 99.9% and 97.9%
AOC3	0.3704 µM	99.2% and 95.3% and 99.1% and 98.5% and 97.8%
MPO	0.1852 µM	96.2% and 98.9% and 97.2%

Study 3
Target: Sodium-dependent neutral amino acid transporter B(0)AT1 (SLC6A19, Homo sapiens, UniProt Q695T7)
Sequence of UniProt Q695T7 (whole entry, looked up): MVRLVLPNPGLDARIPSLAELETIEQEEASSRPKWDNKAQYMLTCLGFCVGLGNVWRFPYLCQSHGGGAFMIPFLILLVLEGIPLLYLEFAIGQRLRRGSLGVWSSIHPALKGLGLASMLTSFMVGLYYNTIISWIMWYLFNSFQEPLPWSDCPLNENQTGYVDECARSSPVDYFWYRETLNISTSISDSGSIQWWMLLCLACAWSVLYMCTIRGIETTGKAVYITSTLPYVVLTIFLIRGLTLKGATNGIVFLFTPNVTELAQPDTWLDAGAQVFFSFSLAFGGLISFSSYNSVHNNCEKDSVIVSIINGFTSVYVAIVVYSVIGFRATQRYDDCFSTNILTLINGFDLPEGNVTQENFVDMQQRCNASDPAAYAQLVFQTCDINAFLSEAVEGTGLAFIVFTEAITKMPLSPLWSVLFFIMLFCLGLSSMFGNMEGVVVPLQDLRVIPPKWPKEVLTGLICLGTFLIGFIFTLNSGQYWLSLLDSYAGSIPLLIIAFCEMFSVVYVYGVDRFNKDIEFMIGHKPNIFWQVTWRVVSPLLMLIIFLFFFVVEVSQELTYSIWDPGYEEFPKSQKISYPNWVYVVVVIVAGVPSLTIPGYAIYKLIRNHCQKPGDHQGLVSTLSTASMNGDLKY
Technique: FLIPR membrane potential
Cells: CHO-BC
Concentration: 30 µM
Notes: unit not given
Reference: uninhibited
SMILES	remaining activity
Cc1cc(NCC(=O)NC(C)C)cc(C)c1Cl	0.0598 and 0.0245 and 0.075 and 0.0704 and 0.0825
Cc1cc(Cl)ccc1OCC(=O)NC(C)C	0.952 and 0.78 and 0.909 and 0.889 and 0.996
CON(C)C(=O)COc1cc(C)c(Cl)c(C)c1	1 and 1.1 and 1.12 and 1.01
CCCCNC(=O)COc1cc(C)c(Cl)c(C)c1	1.03 and 0.991 and 0.976 and 1.07
Cc1cc(OCC(=O)OC(C)C)cc(C)c1Cl	1.01 and 0.911 and 0.898 and 1.08
Cc1cc(OCC(=O)NC(C)C)ccc1Cl	0.378 and 0.362 and 0.112 and 0.103

Study 4
Compound: O=C(Nc1ccccc1)Nc1cccc(Oc2ccc3nccn3n2)c1
target	observed	technique	concentration	remaining binding [%]
SBK1 (Homo sapiens, UniProt Q52WX2)	binding	competition with immobilised ligand	1 µM	100
MAP3K15 (Homo sapiens, UniProt Q6ZN16)	binding	–	1 µM	100
CLK3 (Homo sapiens, UniProt P49761)	binding	–	1 µM	100
CHUK (Homo sapiens, UniProt O15111)	binding	–	1 µM	93
ULK1 (Homo sapiens, UniProt O75385)	binding	–	1 µM	100
EIF2AK2 (Homo sapiens, UniProt P19525)	binding	–	1 µM	100
ANKK1 (Homo sapiens, UniProt Q8NFD2)	binding	–	1 µM	100
NEK6 (Homo sapiens, UniProt Q9HC98)	binding	–	1 µM	100
CSK (Homo sapiens, UniProt P41240)	binding	competition with immobilised ligand	1 µM	100
CDK19 (Homo sapiens, UniProt Q9BWU1)	–	DiscoverX cell-free binding	1000 nM	100
MAK (Homo sapiens, UniProt P20794)	binding	–	1 µM	73
SGK2 (Homo sapiens, UniProt Q9HBY8)	binding	–	1 µM	92
EIF2AK4 (Homo sapiens, UniProt Q9P2K8, S808G)	binding	–	1 µM	86
PIK3CA (Homo sapiens, UniProt P42336, M1043I)	binding	–	1 µM	100
Aurora kinase C (AURKC, Homo sapiens, UniProt Q9UQB9)	–	cell-free binding	1 µM	74
CDKL3 (Homo sapiens, UniProt Q8IVW4)	binding	competition with immobilised ligand	1 µM	100
FLT4 (Homo sapiens, UniProt P35916)	–	cell-free binding	1 µM	33
INSRR (Homo sapiens, UniProt P14616)	binding	–	1 µM	100
EGFR (Homo sapiens, UniProt P00533)	binding	competition with immobilised ligand	1 µM	67
MAP3K7 (Homo sapiens, UniProt O43318)	binding	competition with immobilised ligand	1 µM	100
Myosin-IIIa (MYO3A, Homo sapiens, UniProt Q8NEV4)	binding	–	1 µM	100
STK32B (Homo sapiens, UniProt Q9NY57)	binding	–	1 µM	71

Study 5
Compound: C[C@@H]1CN(c2ccc(-c3cc(C(=O)NCCOCCOCCOCCOCCOCCOCCNC(=O)/C=C/c4[nH]cc(C(=O)N[C@@H](CC(N)=O)c5ccc(F)c(Cl)c5)c4-c4ccc(Cl)cc4F)ccc3F)cc2NC(=O)c2ccc(F)cc2C(F)(F)F)C[C@H](C)N1C
Observed: thermal unfolding
Technique: differential scanning fluorimetry
Concentration: 5.5 µM
Reading: higher = more unfolded
DCAF1: DDB1- and CUL4-associated factor 1 (DCAF1, Homo sapiens, UniProt Q9Y4B6)
Sequence of UniProt Q9Y4B6 (whole entry, looked up): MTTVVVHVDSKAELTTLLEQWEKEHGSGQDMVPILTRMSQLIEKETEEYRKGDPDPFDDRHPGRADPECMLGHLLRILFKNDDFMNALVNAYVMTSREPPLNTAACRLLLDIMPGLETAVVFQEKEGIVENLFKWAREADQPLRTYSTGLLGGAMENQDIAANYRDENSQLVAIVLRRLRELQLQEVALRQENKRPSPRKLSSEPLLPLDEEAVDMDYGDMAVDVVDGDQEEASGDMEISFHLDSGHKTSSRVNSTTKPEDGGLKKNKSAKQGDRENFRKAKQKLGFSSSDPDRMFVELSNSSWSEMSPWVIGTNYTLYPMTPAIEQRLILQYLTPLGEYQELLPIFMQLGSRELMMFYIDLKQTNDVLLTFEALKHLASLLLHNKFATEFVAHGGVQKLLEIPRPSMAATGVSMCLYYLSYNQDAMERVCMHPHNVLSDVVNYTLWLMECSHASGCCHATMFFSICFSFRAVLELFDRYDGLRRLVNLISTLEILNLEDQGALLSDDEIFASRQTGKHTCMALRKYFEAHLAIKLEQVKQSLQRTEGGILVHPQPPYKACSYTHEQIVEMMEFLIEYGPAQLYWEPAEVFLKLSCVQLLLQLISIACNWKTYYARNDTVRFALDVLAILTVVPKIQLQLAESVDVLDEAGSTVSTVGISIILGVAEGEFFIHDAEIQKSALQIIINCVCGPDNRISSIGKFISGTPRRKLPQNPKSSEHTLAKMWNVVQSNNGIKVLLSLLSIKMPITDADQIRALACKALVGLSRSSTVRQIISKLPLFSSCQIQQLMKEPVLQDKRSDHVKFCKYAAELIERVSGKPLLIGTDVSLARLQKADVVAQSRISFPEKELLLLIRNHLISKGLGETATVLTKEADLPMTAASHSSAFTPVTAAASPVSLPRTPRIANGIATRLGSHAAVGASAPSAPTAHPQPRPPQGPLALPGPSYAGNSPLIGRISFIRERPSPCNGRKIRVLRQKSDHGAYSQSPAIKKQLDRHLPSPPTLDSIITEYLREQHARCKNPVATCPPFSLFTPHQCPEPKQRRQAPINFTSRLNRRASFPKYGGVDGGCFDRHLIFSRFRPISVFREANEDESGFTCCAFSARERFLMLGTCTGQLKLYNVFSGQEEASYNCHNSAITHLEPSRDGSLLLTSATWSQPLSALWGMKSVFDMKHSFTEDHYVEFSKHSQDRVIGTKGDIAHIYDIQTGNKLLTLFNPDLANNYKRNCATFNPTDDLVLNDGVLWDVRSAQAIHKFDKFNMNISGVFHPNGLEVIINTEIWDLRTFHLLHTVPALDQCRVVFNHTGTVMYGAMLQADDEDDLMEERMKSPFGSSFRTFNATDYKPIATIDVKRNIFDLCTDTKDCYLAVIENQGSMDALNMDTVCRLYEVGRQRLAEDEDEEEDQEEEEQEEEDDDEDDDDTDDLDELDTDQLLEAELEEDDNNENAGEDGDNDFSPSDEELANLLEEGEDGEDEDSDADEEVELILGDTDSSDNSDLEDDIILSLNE
WDR5: WD repeat-containing protein 5 (WDR5, Homo sapiens, UniProt P61964)
target	temperature	SYPRO Orange fluorescence
DCAF1	87.01 °C	34300 a.u.
DCAF1	69.21 °C	49100 a.u.
WDR5	72.81 °C	39100 a.u.
DCAF1	53.01 °C	22300 a.u.
WDR5	38 °C	13800 a.u.
DCAF1	78.01 °C	41300 a.u.
WDR5	61.41 °C	15100 a.u.
DCAF1	89.21 °C	33000 a.u.
WDR5	60.21 °C	15300 a.u.
DCAF1	29 °C	8130 a.u.
DCAF1	62.21 °C	53100 a.u.

Study 6
Target: Receptor-interacting serine/threonine-protein kinase 3 (RIPK3, Homo sapiens, UniProt Q9Y572)
Sequence of UniProt Q9Y572 (whole entry, looked up): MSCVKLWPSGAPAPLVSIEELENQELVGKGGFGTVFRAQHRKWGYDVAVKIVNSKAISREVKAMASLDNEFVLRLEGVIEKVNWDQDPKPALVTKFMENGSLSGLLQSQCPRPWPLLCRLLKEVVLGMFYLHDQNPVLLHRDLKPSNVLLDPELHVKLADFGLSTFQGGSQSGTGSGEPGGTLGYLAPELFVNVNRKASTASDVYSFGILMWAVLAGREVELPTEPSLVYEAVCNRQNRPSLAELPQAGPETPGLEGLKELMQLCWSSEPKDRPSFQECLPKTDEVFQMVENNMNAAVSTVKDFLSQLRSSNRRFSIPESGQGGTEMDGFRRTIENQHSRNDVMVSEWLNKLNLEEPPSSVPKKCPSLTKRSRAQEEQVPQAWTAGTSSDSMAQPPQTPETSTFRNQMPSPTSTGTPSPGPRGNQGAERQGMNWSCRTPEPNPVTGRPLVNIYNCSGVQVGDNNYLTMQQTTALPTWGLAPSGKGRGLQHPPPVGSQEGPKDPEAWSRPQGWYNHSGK
Observed: enzyme activity
Action: inhibitor
Technique: ADP detection
SMILES	IC50
CC(C)(C)n1nc(-c2ccc(Cl)cc2)c2c(N)ncnc21	28.6 nM
Cc1c(NC(=O)c2cccn(-c3ccc(F)cc3)c2=O)ccc(Oc2ccnc(NC(=O)C3CC3)c2)c1C	56.3 nM
Cc1cc(-c2cnc(N)c3c(-c4ccc5scnc5c4)csc23)n(C)n1	49.4 nM

Further values, each from its own experiment
PKMYT1: Membrane-associated tyrosine- and threonine-specific cdc2-inhibitory kinase (PKMYT1, Homo sapiens, UniProt Q99640)
Sequence of UniProt Q99640 (whole entry, looked up): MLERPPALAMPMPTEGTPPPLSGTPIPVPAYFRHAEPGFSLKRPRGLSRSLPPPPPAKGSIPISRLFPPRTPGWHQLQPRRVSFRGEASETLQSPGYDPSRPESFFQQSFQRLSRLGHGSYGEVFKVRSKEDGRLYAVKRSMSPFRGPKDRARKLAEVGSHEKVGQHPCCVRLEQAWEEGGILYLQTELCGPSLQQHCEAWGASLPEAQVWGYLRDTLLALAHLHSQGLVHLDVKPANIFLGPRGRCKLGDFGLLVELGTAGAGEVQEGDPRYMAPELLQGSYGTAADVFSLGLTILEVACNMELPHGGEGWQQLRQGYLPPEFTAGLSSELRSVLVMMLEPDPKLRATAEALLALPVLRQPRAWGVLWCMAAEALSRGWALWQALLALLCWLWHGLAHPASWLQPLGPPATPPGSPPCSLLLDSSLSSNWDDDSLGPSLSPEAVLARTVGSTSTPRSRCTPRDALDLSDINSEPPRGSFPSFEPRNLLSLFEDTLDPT
Structure (SMILES)	tested on	assay	system	conditions	how to read	measurement	result
CCn1cnc2c(NCc3nc4ccc(F)c(F)c4[nH]3)nc(N3CCn4ncnc4C3)nc21	MDA-MB-231	degrader, western blot, measured: cyclin K	–	5 nM, 24 h	–	degradation	44.2%
Cc1ncc(-c2cc3c(C#N)c(-c4c(C)ccc(O)c4C)cnc3[nH]2)cn1	–	–	Caco-2	2 µM, 2 h, pH 7.4	–	efflux ratio	1.28
Cn1ncc2c1N(CCCCNC/C=C/C#N)c1cc(Cl)ccc1CC2.O=C(O)/C=C\C(=O)O	–	–	human plasma	5 µM	–	half-life	90.3 ± 10.7 min
Cc1ccc(O)c(C)c1-c1cnc2[nH]c(-c3cnc(N4CCC(CN5CCN(c6ccc(NC7CCC(=O)NC7=O)cc6F)CC5)CC4)nc3)cc2c1C#N (stereo not shown)	–	–	male cynomolgus monkey, plasma	intravenous, 1 mg/kg	–	clearance	7.4 mL/min/kg
CCONC(=O)/C=C/CNCCCCN1c2cc(Cl)ccc2CCc2cnn(C)c21.O=C(O)/C=C\C(=O)O	NCI-H292	CellTiter-Glo	–	0.05 µM, 72 h	higher = more viable cells	luminescence	4.01e+06 a.u. and 3.89e+06 a.u. and 3.69e+06 a.u.
Cc1ccc(O)c(C)c1-c1cnc2[nH]c(-c3cnc(N4CCC(CCN5CCN(c6ccc7c(c6)C(=O)N(C6CCC(=O)NC6=O)C7=O)CC5)CC4)nc3)cc2c1C#N (racemic)	PKMYT1	binding, HTRF	–	111.11 nM	–	inhibition	98.9% and 98.1%
CCOC(=O)/C=C/CNCCCCN1c2cc(Cl)ccc2CCc2cnn(C)c21.O=C(O)/C=C\C(=O)O	–	–	human plasma	5 µM	–	half-life	150 ± 23.2 min
Cc1ccc(O)c(C)c1-c1cnc2[nH]c(-c3cnc(N4CCC(CN5CCN(c6ccc(NC7CCC(=O)NC7=O)c(F)c6)CC5)CC4)nc3)cc2c1C#N (racemic)	PKMYT1	binding, HTRF	–	–	–	IC50	4.6 nM
N#C/C=C/CNCCCCN1c2ccccc2CCc2ccc(Cl)cc21	NCI-H292	cell growth or viability, ATP luminescence	–	–	–	IC50	5280 nM
CCn1cnc2c(NCc3nc4cc(F)c(F)cc4[nH]3)nc(N3CCn4ncnc4C3)nc21	MDA-MB-231	degrader, western blot, measured: cyclin K	–	50 nM, 24 h	–	degradation	65.8%

Repeated from above (study 4):
target	observed	technique	concentration	remaining binding [%]
CHUK (Homo sapiens, UniProt O15111)	binding	–	1 µM	93
STK32B (Homo sapiens, UniProt Q9NY57)	binding	–	1 µM	71
FLT4 (Homo sapiens, UniProt P35916)	–	cell-free binding	1 µM	33
CSK (Homo sapiens, UniProt P41240)	binding	competition with immobilised ligand	1 µM	100
MAP3K7 (Homo sapiens, UniProt O43318)	binding	competition with immobilised ligand	1 µM	100
CDKL3 (Homo sapiens, UniProt Q8IVW4)	binding	competition with immobilised ligand	1 µM	100
PIK3CA (Homo sapiens, UniProt P42336, M1043I)	binding	–	1 µM	100
NEK6 (Homo sapiens, UniProt Q9HC98)	binding	–	1 µM	100
